Published values collected from several papers.
Protocols differ between the studies behind these lines. Several values in a cell are separate wells, animals, samples, runs or records. ± gives the spread as reported.
rep main protease: Replicase polyprotein 1ab, main protease (rep, Severe acute respiratory syndrome coronavirus 2, UniProt P0DTD1)
rep papain-like protease: Replicase polyprotein 1ab, papain-like protease (rep, Severe acute respiratory syndrome coronavirus 2, UniProt P0DTD1)

Compound | target or system | assay | system | setting | measurement | value
CN(C)C(=O)CCCNC(=O)C[C@H](Cc1ccc(F)cc1)NC(=O)[C@@H](Cc1ccc(Cl)cc1Cl)NC(=O)[C@H](N)Cc1ccccc1C#N | rep main protease | enzyme activity, inhibitor | – | – | IC50 | 80 nM
Cc1ccc(OCCN(C)C)cc1C(=O)N[C@H](C)c1cc(-c2cnn(CC(N)=O)c2)cc(-c2cccs2)c1 | rep papain-like protease | protease activity, inhibitor | FlipGFP reporter cells | – | EC50 | > 10000 nM
CC[C@H](C)[C@H](NC(=O)[C@H](C)NC(=O)[C@H](CCC(=O)O)NC(=O)[C@H](CCC(=O)O)NC(=O)[C@H](CC(C)C)NC(=O)[C@H](CCCCN)NC(=O)[C@H](CCCCN)NC(=O)[C@H](CCSC)NC(=O)[C@H](CCC(=O)O)NC(=O)[C@H](Cc1ccc(O)cc1)NC(=O)[C@H](CCC(=O)O)NC(=O)[C@H](CC(C)C)NC(=O)[C@H](CC(=O)O)NC(=O)[C@H](CC(C)C)NC(=O)[C@H](Cc1ccccc1)NC(=O)[C@@H](NC(=O)[C@@H](NC(=O)[C@H](CC(N)=O)NC(=O)[C@@H](NC(=O)[C@H](CCC(N)=O)NC(=O)[C@H](CC(=O)O)NC(=O)[C@H](CC(C)C)NC(=O)[C@H](CO)NC(=O)[C@H](CC(C)C)NC(=O)[C@H](CC(=O)O)NC(=O)[C@@H]1CCCN1C(=O)[C@H](C)N)[C@@H](C)CC)C(C)C)[C@@H](C)O)C(=O)N[C@@H](CCCCN)C(=O)N[C@@H](CCCCN)C(=O)N[C@@H](CC(C)C)C(=O)N[C@@H](CCC(=O)O)C(=O)N[C@@H](CCC(=O)O)C(=O)N[C@@H](CO)C(=O)N[C@@H](Cc1ccc(O)cc1)C(=O)N[C@H](C(=O)N[C@@H](CC(=O)O)C(=O)N[C@@H](CC(C)C)C(=O)N[C@@H](CCCCN)C(=O)N[C@@H](CCC(=O)O)C(=O)N[C@@H](CC(C)C)C(=O)O)[C@@H](C)CC | SARS-CoV-2 EG.5.1 pseudovirus | pseudovirus infection, inhibitor, luciferase | Caco-2 | 24 h | IC50 | 193 nM
N#CCCNC(=O)C[C@H](Cc1ccc(F)cc1)NC(=O)[C@@H](Cc1ccc(Cl)cc1Cl)NC(=O)[C@H](N)Cc1ccccc1C#N | rep main protease | enzyme activity, inhibitor | – | – | IC50 | 100 nM
Clc1nc2ccccc2cc1/C=N/c1cc(Br)ccn1 | rep main protease | inhibitor | – | – | Ki | < 2000 nM and 1820 nM
COCCn1cc(-c2cc(-c3cnn(CC(N)=O)c3)cc([C@@H](C)NC(=O)c3cc(OCCN(C)C)ccc3C)c2)cn1 | rep papain-like protease | protease activity, inhibitor | FlipGFP reporter cells | – | EC50 | > 10000 nM
COc1ccc(S(=O)(=O)Nc2cccc(C(=O)NC3CCN(c4ncnc5[nH]cnc45)CC3)c2)cc1 | SARS-CoV-2 | viral replication | Wuhan-Hu-1 | – | EC50 | 1760 nM
CC[C@H](C)[C@H](NC(=O)[C@H](C)NC(=O)[C@H](CCC(=O)O)NC(=O)[C@H](CCC(=O)O)NC(=O)[C@H](CC(C)C)NC(=O)[C@H](CCCCN)NC(=O)[C@H](CCCCN)NC(=O)[C@H](CCSC)NC(=O)[C@H](CCC(=O)O)NC(=O)[C@H](Cc1ccc(O)cc1)NC(=O)[C@H](CCC(=O)O)NC(=O)[C@H](CC(C)C)NC(=O)[C@H](CC(=O)O)NC(=O)[C@H](CC(C)C)NC(=O)[C@H](Cc1ccccc1)NC(=O)[C@H](Cc1ccc(O)cc1)NC(=O)[C@@H](NC(=O)[C@H](CC(N)=O)NC(=O)[C@@H](NC(=O)[C@H](CCC(N)=O)NC(=O)[C@H](CC(=O)O)NC(=O)[C@H](CC(C)C)NC(=O)[C@@H](N)CO)[C@@H](C)CC)C(C)C)C(=O)N[C@@H](CCCCN)C(=O)N[C@@H](CCCCN)C(=O)N[C@@H](CC(C)C)C(=O)N[C@@H](CCC(=O)O)C(=O)N[C@@H](CCC(=O)O)C(=O)N[C@H](C(=O)N[C@@H](Cc1ccc(O)cc1)C(=O)N[C@H](C(=O)N[C@@H](CC(=O)O)C(=O)N[C@@H](CC(C)C)C(=O)N[C@@H](CCCCN)C(=O)N[C@@H](CCC(=O)O)C(=O)N[C@@H](CC(C)C)C(=O)O)[C@@H](C)CC)[C@@H](C)O | SARS-CoV-2 Beta pseudovirus | pseudovirus infection, inhibitor, luciferase | Caco-2 | 24 h, dual mutations | IC50 | 599 nM
CC(C)[C@H](NC(=O)c1n[nH]c2c1CCC2)c1nc2ccccc2n1C | Replicase polyprotein 1ab, nsp3 Mac1 domain (rep, Severe acute respiratory syndrome coronavirus 2, UniProt P0DTD1) | – | – | – | Kd | 3160 ± 2420 nM
N#Cc1ccccc1C[C@@H](N)C(=O)N[C@H](Cc1ccc(Cl)cc1Cl)C(=O)N[C@H](CC(=O)NCCCS(N)(=O)=O)Cc1ccc(F)cc1 | rep main protease | enzyme activity, inhibitor | – | – | IC50 | 200 nM
Cc1ccc(OCCN(C)C)cc1C(=O)N[C@H](C)c1cc(-c2cnn(C)c2)cc(-c2cnn(CC(N)=O)c2)c1 | rep papain-like protease | protease activity, inhibitor | FlipGFP reporter cells | – | EC50 | > 10000 nM
Oc1nc(/C=C/c2ccc(Cl)cc2Cl)cc(C(F)(F)F)n1 | Replicase polyprotein 1ab, nsp16 with nsp10 (rep, Severe acute respiratory syndrome coronavirus 2, UniProt P0DTD1) | irreversible inhibitor | – | – | Ki | 26000 nM

Some of these lines once more:
Compound | target or system | assay | system | setting | measurement | value
CC[C@H](C)[C@H](NC(=O)[C@H](C)NC(=O)[C@H](CCC(=O)O)NC(=O)[C@H](CCC(=O)O)NC(=O)[C@H](CC(C)C)NC(=O)[C@H](CCCCN)NC(=O)[C@H](CCCCN)NC(=O)[C@H](CCSC)NC(=O)[C@H](CCC(=O)O)NC(=O)[C@H](Cc1ccc(O)cc1)NC(=O)[C@H](CCC(=O)O)NC(=O)[C@H](CC(C)C)NC(=O)[C@H](CC(=O)O)NC(=O)[C@H](CC(C)C)NC(=O)[C@H](Cc1ccccc1)NC(=O)[C@@H](NC(=O)[C@@H](NC(=O)[C@H](CC(N)=O)NC(=O)[C@@H](NC(=O)[C@H](CCC(N)=O)NC(=O)[C@H](CC(=O)O)NC(=O)[C@H](CC(C)C)NC(=O)[C@H](CO)NC(=O)[C@H](CC(C)C)NC(=O)[C@H](CC(=O)O)NC(=O)[C@@H]1CCCN1C(=O)[C@H](C)N)[C@@H](C)CC)C(C)C)[C@@H](C)O)C(=O)N[C@@H](CCCCN)C(=O)N[C@@H](CCCCN)C(=O)N[C@@H](CC(C)C)C(=O)N[C@@H](CCC(=O)O)C(=O)N[C@@H](CCC(=O)O)C(=O)N[C@@H](CO)C(=O)N[C@@H](Cc1ccc(O)cc1)C(=O)N[C@H](C(=O)N[C@@H](CC(=O)O)C(=O)N[C@@H](CC(C)C)C(=O)N[C@@H](CCCCN)C(=O)N[C@@H](CCC(=O)O)C(=O)N[C@@H](CC(C)C)C(=O)O)[C@@H](C)CC | SARS-CoV-2 EG.5.1 pseudovirus | pseudovirus infection, inhibitor, luciferase | Caco-2 | 24 h | IC50 | 193 nM
